Measured values of several laboratories.
Each line is one published result; not all experiments were run side by side. ± marks the error that the study gave.
Target: Cytochrome P450 3A4 (CYP3A4, Homo sapiens, UniProt P08684)
UniProt P08684, sequence (whole entry, looked up): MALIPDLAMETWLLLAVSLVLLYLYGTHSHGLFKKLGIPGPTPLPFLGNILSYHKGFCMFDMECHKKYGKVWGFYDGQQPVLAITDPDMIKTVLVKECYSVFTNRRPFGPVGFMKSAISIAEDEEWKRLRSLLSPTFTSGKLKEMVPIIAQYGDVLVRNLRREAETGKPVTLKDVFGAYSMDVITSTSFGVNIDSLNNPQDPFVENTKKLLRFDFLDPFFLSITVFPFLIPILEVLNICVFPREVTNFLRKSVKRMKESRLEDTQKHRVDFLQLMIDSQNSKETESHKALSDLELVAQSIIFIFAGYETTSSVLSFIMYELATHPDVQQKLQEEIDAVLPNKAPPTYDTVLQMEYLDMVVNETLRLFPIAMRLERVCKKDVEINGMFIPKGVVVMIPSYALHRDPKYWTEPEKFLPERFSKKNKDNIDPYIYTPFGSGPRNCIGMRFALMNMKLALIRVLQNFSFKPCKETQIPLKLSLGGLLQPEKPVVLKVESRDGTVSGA

SMILES | assay | system | conditions | measurement | result
O=C1Cc2cc(CCN3CCN(c4nsc5ccccc45)CC3)c(Cl)cc2N1 | inhibitor |  | 10 µM, pH 7.4 | inhibition | 33%
CNCCN1C(=O)[C@H](OC(C)=O)[C@H](c2ccc(OC)cc2)Sc2ccccc21 | inactivator |  |  | kinact/KI | 550 ± 117 M⁻¹ s⁻¹
CCC[C@@](N)(CO)CCc1ccc(OCCCCCC(C)C)cc1 | enzyme activity, inhibitor |  | with: midazolam | IC50 | > 50 µM
O=c1[nH]ncn1-c1ccc(N2CCN(c3ccc(OCC4COC(Cn5cncn5)(c5ccc(Cl)cc5Cl)O4)cc3)CC2)cc1 (centres unmarked) | inhibitor | human liver microsomes | with: midazolam | IC50 | 0.0189 µM
N=c1c2c(-c3ccccc3)c(-c3ccccc3)n(Cc3ccccc3)c2ncn1[C@H]1CC[C@H](O)CC1 | recombinant CYP3A4 |  | concentration not given, pH 7.4 | compound converted | 30%
Cc1ncc2n1-c1ccc(Cl)cc1C(c1ccccc1F)=NC2 |  | human, plasma | oral, 2 mg, day 1, alone, geometric mean | CL/F | 96.5 L/h
CC(C)CC(=O)OC[C@H]1O[C@@](C#N)(c2ccc3c(N)ncnn23)[C@H](O)[C@@H]1O | metabolic stability | recombinant enzyme | 1 µM | half-life | 2.18 ± 0.0307 min
CSc1ccccc1C(=O)NCCn1cc(C(=O)NCc2cccc(C)n2)c(=O)c2cc3c(cc21)OC(F)(F)O3 | enzyme activity, inhibitor | human liver microsomes | 20 min, 30 min NADPH preincubation, with: midazolam 5 µM | IC50 | 47.9 µM
CS(=O)(=O)Nc1ncn(-c2cc(F)c(COc3ccc(OS(=O)(=O)F)cc3)c(F)c2)n1 |  |  |  | IC50 | > 50 µM
CSc1ccccc1C(=O)NCCn1cc(C(=O)NCc2cccc(C)n2)c(=O)c2cc3c(cc21)OCO3 | enzyme activity, inhibitor | human liver microsomes | 20 min, no NADPH preincubation, with: midazolam 5 µM | IC50 | 47.5 µM
Cc1ncc2n1-c1ccc(Cl)cc1C(c1ccccc1F)=NC2O (centres unmarked) |  | human, plasma | 2 mg, alone, arithmetic mean | Cmax | 0.434 ng/mL
